Assay results gathered from unrelated publications.
Every numbered part comes from another study and shows a few of its results, in no order.

Series 1 — method: protein-binding microarray; form: hairpin DNA; medium: in vitro; tested at: not given; reference: not given; reading: higher = stronger binding
Target: Runt-related transcription factor 3, Runt domain (RUNX3, Homo sapiens, UniProt Q13761, residues 53-186)
Sequence of UniProt Q13761 (53-186, looked up): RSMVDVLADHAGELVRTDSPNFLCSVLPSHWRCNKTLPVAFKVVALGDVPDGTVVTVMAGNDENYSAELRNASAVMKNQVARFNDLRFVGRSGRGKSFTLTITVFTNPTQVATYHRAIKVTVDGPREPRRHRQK
Notes: whole hairpin DNA, median over replicate spots
`GAGGCCTGTTGCGATTGGCCTCCTGGCCAATCGCAACAGGCCTCACACTC` has a median fluorescence of 4710 a.u.
`GAGGCCTGTCGTGGTTGGCCTCCTGGCCAACCACGACAGGCCTCACACTC` gave a median fluorescence of 5370 a.u.
`GAGGCCCAACCGCACGAGCCTCCTGGCTCGTGCGGTTGGGCCTCACACTC (5mC at 15 29)` has a median fluorescence of 5850 a.u.
The median fluorescence of `GAGGCCTGTCGCTGTTGGCCTCCTGGCCAACAGCGACAGGCCTCACACTC` is reported as 5080 a.u.

Series 2 — observed: enzyme activity; mode: inhibitor; tested at: 20 µM
Target: Replicase polyprotein 1ab, polymerase (rep, Severe acute respiratory syndrome coronavirus 2, UniProt P0DTD1)
For `NCC[C@H](O)C(=O)N[C@@H]1C[C@H](N)[C@@H](O[C@H]2O[C@H](CN)[C@@H](O)[C@H](O)[C@H]2O)[C@H](O)[C@H]1O[C@H]1O[C@H](CO)[C@@H](O)[C@H](N)[C@H]1O`, the inhibition was -3.97%.
The inhibition of `CN1CCN(c2ccc3nc(-c4c(N)c5c(F)cccc5[nH]c4=O)[nH]c3c2)CC1` is reported as -7.04%.
With `C[C@@H]1C[C@H]2[C@@H]3C[C@H](F)C4=CC(=O)C=C[C@]4(C)[C@@]3(Cl)[C@@H](O)C[C@]2(C)[C@H]1C(=O)COC(=O)C(C)(C)C` the inhibition was 1.42%.
The inhibition of `CN(C)CCCCSC(=N)N` is reported as 13%.
The inhibition of `CCOc1cc(/C=C2/C(=O)N(c3ccccc3)N=C2C)cc(Cl)c1OCC(=O)OC` is reported as -1.81%.
`Cc1[nH]nc2ccc(-c3cncc(OC[C@@H](N)Cc4ccccc4)c3)cc12` has an inhibition of 8.76%.
With `C[C@@]12CCc3occc3[C@H]1CC[C@@]13C[C@@H](CC[C@H]12)[C@@](O)(CO)C3` the inhibition was 1.96%.
For `COc1cc(C(=O)O)ccc1NC(=O)[C@@H]1N[C@@H](CC(C)(C)C)[C@](C#N)(c2ccc(Cl)cc2F)[C@H]1c1cccc(Cl)c1F`, the inhibition was -2.27%.
With `COc1ccnc2[nH]cc(C(=O)C(=O)N3CCN(C(=O)c4ccccc4)C[C@H]3C)c12` the inhibition was 4.82%.
`OC(CCCN1CCN(c2ncc(F)cn2)CC1)c1ccc(F)cc1` (stereo not shown) gave an inhibition of -0.96%.
`Cc1ccc(S(=O)(=O)OCC(=O)Nc2ccc(C(=O)O)c(O)c2)cc1` gave an inhibition of 5.58%.
`O=C1CN(/N=C/c2ccc(-c3ccc([N+](=O)[O-])cc3)o2)C(=O)N1` gave an inhibition of 10.5%.
For `Cn1nc(-c2cccc(F)c2)n(C)c1=S`, the inhibition was 4.65%.
`CC(=O)OCC(=O)[C@@]1(O)CC[C@H]2[C@@H]3CCC4=CC(=O)C=C[C@]4(C)[C@@]3(F)[C@@H](O)C[C@@]21C` gave an inhibition of 3.86%.
The inhibition of `O=P1(NCCCl)OCCCN1CCCl` (stereo not shown) is reported as -2.79%.
`CN(C)c1cc(CNCC(C)(C)C)c(O)c2c1C[C@H]1C[C@H]3[C@H](N(C)C)C(O)=C(C(N)=O)C(=O)[C@@]3(O)C(O)=C1C2=O` has an inhibition of 12.7%.
With `Cc1ccccc1N=Nc1ccc(NC(=O)c2ccnn2C)c(C)c1` the inhibition was 0.1%.
The inhibition of `CC[C@@]1([C@H]2O[C@H]([C@H]3O[C@@](O)(CO)[C@H](C)C[C@@H]3C)C[C@H]2C)CC[C@H]([C@@]2(C)CC[C@]3(C[C@H](O)[C@@H](C)[C@@H]([C@H](C)[C@H](OC)[C@@H](C)C(=O)O)O3)O2)O1` is reported as -2.88%.
The inhibition of `CCCN(CCC)C1CCc2ccc(O)cc2C1` (stereo not shown) is reported as -5.17%.
`COc1ccc(-c2oc3c(CC=C(C)C)c(O)cc(O)c3c(=O)c2O)cc1` has an inhibition of -5.84%.
For `CC1(C)CCC(C)(C)c2cc(C(=O)Nc3ccc(C(=O)O)cc3)ccc21`, the inhibition was 9.61%.
With `Cc1cc(C)c(NC(=O)N(Cc2ccc3c(c2)Cc2ccccc2-3)C2CCCCCC2)c(C)c1` the inhibition was 1.56%.
The inhibition of `Cc1ncc[nH]1` is reported as -2.17%.
For `CCC(=O)O[C@]1(C(=O)CO)CC[C@H]2[C@@H]3CCC4=CC(=O)CC[C@]4(C)[C@H]3CC[C@@]21C`, the inhibition was -0.68%.
The inhibition of `O=C(CCCCCCC(=O)Nc1ccccc1)NO` is reported as -4.25%.

Series 3 — method: universal PBM; form: double-stranded DNA, one strand shown; medium: in vitro; tested at: not given; reading: higher = stronger binding
Target: Sal-like protein 4, full length isoform B (SALL4, Homo sapiens, UniProt Q9UJQ4-2, residues 1-616)
Notes: 8-mer, flanks averaged, mean of replicates
Construct (chain): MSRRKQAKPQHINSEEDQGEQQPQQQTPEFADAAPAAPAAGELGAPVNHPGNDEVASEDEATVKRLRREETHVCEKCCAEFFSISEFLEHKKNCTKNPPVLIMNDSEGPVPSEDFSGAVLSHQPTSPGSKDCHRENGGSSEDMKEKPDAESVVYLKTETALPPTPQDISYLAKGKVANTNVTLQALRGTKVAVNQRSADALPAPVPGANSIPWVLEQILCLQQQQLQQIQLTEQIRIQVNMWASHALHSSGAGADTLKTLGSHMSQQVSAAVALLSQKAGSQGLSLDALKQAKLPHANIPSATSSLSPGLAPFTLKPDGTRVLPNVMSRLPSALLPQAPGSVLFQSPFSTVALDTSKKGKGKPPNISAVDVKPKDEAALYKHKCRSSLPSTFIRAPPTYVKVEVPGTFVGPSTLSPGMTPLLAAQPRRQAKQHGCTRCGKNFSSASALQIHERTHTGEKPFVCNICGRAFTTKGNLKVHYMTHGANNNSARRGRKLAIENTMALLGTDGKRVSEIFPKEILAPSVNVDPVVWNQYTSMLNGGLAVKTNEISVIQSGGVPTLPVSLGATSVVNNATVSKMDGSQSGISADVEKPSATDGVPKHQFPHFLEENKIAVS
With `CCAGCGGC` the E-score was -0.344.
For `ACGTCCGA`, the E-score was -0.153.
`CATGAGGA` has an E-score of 0.0451.
The E-score of `AATCGGGA` is reported as -0.0293.
`CTGAGTAA` has an E-score of 0.147.
With `CAGATCGA` the E-score was -0.107.
`CGTATAAA` gave an E-score of 0.305.
`GACGGCAA` has an E-score of -0.183.

Series 4 — method: protein-binding microarray; form: double-stranded DNA, one strand shown; medium: in vitro; tested at: not given; reading: higher = stronger binding
Target: Hepatocyte nuclear factor 3-beta, forkhead domain (FOXA2, Homo sapiens, UniProt Q9Y261, residues 142-269)
Notes: k-mer, scored over probes, only values ≥0.25
Target sequence (chain): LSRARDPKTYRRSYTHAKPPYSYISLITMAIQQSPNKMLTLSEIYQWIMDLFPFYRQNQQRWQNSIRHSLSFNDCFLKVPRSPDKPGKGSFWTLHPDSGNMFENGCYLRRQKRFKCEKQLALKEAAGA
`CAATATTG` gave an E-score of 0.325.
With `GTGTAAAC` the E-score was 0.317.
`ATAATACA` gave an E-score of 0.374.
With `CATTGTTA` the E-score was 0.276.
`CATCACTA` gave an E-score of 0.275.
`CATATACG` has an E-score of 0.325.
`AGTCTTAT` has an E-score of 0.349.
The E-score of `CTACAATC` is reported as 0.274.

Series 5 — cell line: HEK-293T/ACE2; tested at: concentration not given; time: 16 (unit not given); reference: vehicle
`CN(C)c1cc(NC(=O)CNC(C)(C)C)c(O)c2c1C[C@H]1C[C@H]3[C@H](N(C)C)C(O)=C(C(N)=O)C(=O)[C@@]3(O)C(O)=C1C2=O` has a viability of 104%.
`CC(=O)Nc1cccc(-n2c(=O)n(C3CC3)c(=O)c3c(Nc4ccc(I)cc4F)n(C)c(=O)c(C)c32)c1` gave a viability of 99.8%.
The viability of `C[N+]1(C)[C@@H]2C[C@@H](OC(=O)[C@H](CO)c3ccccc3)C[C@H]1[C@@H]1O[C@@H]12` is reported as 99.7%.
`C[C@H]1CNCCc2ccc(Cl)cc21` has a viability of 90.5%.

Series 6 — observed: enzyme activity; mode: inhibitor; tested at: 20 µM; notes: hit confirmation, with DTT
Target: Replicase polyprotein 1ab, main protease (rep, Severe acute respiratory syndrome coronavirus 2, UniProt P0DTD1)
`O=C1C2CC=CCC2C(=O)N1SC(Cl)(Cl)Cl` (stereo not shown) has an inhibition of 9.8%.
For `CC(=O)[O][Hg][c]1ccccc1`, the inhibition was 84.7%.
For `CN(CCCN1c2ccccc2CCc2ccccc21)CC(=O)c1ccc(Cl)cc1`, the inhibition was -24.1%.
